Assay results gathered from unrelated publications.
A part holds a random share of what one study measured. Values joined by “and” are separate records of one study, mostly repeats; a detail may differ.
Chain of UniProt Q8WTQ7 (whole entry, looked up): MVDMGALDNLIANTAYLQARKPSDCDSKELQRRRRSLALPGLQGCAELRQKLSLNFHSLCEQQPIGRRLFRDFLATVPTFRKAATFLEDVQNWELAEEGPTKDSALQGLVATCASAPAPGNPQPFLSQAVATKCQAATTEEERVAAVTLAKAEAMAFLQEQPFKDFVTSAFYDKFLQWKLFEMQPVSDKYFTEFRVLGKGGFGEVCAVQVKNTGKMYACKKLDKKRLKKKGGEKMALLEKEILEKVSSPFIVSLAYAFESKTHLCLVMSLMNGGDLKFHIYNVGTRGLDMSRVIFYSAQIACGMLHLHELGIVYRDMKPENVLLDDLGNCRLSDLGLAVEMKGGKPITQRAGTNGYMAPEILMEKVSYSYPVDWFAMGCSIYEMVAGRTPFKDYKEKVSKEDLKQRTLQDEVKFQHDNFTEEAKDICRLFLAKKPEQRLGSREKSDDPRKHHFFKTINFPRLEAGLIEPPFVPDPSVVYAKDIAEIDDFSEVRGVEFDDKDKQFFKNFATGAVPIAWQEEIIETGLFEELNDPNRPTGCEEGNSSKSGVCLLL
Chain of UniProt O43353 (whole entry, looked up): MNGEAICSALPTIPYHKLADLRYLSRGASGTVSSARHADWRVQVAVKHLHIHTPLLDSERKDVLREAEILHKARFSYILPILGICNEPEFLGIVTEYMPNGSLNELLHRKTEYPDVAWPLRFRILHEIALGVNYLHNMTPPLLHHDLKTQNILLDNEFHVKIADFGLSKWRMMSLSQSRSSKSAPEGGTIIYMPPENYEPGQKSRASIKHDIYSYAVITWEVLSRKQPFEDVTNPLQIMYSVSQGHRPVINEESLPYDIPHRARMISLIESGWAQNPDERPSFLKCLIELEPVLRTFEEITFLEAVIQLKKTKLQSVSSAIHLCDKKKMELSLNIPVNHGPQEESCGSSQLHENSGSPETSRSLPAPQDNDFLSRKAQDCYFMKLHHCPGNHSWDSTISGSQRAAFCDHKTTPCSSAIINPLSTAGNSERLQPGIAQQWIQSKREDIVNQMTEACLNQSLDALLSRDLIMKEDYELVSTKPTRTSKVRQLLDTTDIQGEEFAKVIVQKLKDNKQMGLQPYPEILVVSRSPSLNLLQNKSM
Chain of UniProt Q9UEE5 (whole entry, looked up): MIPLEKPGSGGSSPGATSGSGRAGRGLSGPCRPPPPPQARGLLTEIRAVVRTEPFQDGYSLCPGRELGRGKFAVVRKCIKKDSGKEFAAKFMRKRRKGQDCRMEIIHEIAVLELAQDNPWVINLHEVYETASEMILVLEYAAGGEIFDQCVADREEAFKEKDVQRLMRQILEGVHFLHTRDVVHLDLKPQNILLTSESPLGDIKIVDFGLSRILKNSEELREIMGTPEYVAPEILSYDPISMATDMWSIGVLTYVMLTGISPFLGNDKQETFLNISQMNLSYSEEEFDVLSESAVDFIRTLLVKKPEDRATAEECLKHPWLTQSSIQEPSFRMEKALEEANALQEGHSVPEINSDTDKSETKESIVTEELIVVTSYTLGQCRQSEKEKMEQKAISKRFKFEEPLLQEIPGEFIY
Chain of UniProt P42338 (whole entry, looked up): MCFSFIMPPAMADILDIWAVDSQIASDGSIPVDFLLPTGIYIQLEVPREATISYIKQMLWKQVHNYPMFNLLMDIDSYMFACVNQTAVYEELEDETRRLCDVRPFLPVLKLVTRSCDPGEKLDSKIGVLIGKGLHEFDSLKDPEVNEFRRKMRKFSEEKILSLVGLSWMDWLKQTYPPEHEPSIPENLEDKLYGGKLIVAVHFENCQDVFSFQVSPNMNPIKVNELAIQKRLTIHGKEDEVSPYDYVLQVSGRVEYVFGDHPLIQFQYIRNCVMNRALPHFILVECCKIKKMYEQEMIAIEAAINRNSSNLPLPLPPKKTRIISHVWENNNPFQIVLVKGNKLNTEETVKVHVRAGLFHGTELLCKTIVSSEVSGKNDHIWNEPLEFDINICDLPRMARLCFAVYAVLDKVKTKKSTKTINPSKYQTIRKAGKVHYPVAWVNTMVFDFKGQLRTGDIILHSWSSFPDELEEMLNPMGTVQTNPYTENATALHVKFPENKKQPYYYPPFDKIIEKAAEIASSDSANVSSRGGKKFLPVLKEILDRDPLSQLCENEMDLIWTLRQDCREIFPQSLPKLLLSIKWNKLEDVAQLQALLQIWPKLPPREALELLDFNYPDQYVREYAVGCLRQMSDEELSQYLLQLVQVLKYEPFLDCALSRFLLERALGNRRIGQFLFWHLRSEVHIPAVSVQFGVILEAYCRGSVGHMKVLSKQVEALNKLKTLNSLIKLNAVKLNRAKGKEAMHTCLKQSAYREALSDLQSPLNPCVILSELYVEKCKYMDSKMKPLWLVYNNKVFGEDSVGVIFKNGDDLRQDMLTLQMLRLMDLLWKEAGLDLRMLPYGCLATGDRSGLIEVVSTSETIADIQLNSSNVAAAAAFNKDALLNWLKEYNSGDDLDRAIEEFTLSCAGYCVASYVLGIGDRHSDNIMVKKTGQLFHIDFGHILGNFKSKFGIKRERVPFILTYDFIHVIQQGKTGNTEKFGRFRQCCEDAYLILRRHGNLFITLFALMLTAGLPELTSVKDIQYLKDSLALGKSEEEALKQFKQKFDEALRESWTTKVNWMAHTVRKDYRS
Chain of UniProt P49760 (whole entry, looked up): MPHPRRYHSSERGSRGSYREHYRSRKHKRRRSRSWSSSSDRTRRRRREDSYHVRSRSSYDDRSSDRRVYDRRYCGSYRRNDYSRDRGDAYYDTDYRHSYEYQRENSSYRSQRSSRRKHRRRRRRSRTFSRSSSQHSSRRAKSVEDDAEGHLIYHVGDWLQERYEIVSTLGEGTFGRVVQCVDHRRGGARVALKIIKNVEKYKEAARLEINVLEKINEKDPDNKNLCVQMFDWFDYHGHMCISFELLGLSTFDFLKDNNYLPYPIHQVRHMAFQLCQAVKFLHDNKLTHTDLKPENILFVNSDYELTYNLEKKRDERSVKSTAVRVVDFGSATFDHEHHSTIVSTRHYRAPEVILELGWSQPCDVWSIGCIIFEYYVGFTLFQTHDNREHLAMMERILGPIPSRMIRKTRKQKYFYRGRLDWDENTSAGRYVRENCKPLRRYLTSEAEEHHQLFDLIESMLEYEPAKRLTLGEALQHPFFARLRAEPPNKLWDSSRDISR
Chain of UniProt P50750 (whole entry, looked up): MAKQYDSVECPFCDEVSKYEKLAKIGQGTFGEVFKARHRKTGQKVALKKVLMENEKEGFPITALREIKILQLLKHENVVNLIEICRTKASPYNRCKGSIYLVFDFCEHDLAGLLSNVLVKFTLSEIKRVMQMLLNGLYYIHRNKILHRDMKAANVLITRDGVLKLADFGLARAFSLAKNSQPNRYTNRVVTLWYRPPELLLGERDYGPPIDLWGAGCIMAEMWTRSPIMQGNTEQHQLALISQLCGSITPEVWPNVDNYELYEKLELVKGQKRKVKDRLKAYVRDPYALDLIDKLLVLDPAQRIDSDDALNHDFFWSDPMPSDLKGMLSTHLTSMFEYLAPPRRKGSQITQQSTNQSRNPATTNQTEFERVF

Study 1 — concentration: 1 µM; quantity: remaining binding
SMILES: CC[C@@]1(c2cccc(C(F)(F)F)c2)C2=C(Nc3n[nH]cc31)[C@H](F)C(C)(C)CC2=O (single isomer, unassigned)
TNIK (Homo sapiens, UniProt Q9UKE5); kinase binding, KINOMEscan; reference: DMSO control: 92%
CDK9 (Homo sapiens, UniProt P50750); binding, competition with immobilised ligand: 100%
BMPR2 (Homo sapiens, UniProt Q13873); binding, competition with immobilised ligand: 89%
ZAP70 (Homo sapiens, UniProt P43403); binding, competition with immobilised ligand: 100%
RIPK2 (Homo sapiens, UniProt O43353); binding, competition with immobilised ligand: 91%
STK17A (Homo sapiens, UniProt Q9UEE5); binding, competition with immobilised ligand: 90%
MAP3K3 (Homo sapiens, UniProt Q99759); binding, competition with immobilised ligand: 97%
RAF1 (Homo sapiens, UniProt P04049); kinase binding, KINOMEscan; reference: DMSO control: 100%
HIPK3 (Homo sapiens, UniProt Q9H422); kinase binding, KINOMEscan; reference: DMSO control: 100%
CLK2 (Homo sapiens, UniProt P49760); binding, competition with immobilised ligand: 91%
CSNK1D (Homo sapiens, UniProt P48730); kinase binding, KINOMEscan; reference: DMSO control: 93%
Tyrosine-protein kinase JAK1, JH1 kinase domain (JAK1, Homo sapiens, UniProt P23458); kinase binding, KINOMEscan; reference: DMSO control: 100%
Tyrosine-protein kinase ABL1, phosphorylated (ABL1, Homo sapiens, UniProt P00519, Y253F); binding, competition with immobilised ligand: 56%
PRKD1 (Homo sapiens, UniProt Q15139); binding, competition with immobilised ligand: 90%
GRK7 (Homo sapiens, UniProt Q8WTQ7); kinase binding, KINOMEscan; reference: DMSO control: 95%
PIK3CB (Homo sapiens, UniProt P42338); kinase binding, KINOMEscan; reference: DMSO control: 100%

Study 2 — observed: binding; method: HTRF; quantity: inhibition
Compound: Cc1ncc(-c2cc3c(Cl)c(-c4c(C)ccc(O)c4C)cnc3[nH]2)cn1
Target: Membrane-associated tyrosine- and threonine-specific cdc2-inhibitory kinase (PKMYT1, Homo sapiens, UniProt Q99640)
Residues (Q99640 1-499): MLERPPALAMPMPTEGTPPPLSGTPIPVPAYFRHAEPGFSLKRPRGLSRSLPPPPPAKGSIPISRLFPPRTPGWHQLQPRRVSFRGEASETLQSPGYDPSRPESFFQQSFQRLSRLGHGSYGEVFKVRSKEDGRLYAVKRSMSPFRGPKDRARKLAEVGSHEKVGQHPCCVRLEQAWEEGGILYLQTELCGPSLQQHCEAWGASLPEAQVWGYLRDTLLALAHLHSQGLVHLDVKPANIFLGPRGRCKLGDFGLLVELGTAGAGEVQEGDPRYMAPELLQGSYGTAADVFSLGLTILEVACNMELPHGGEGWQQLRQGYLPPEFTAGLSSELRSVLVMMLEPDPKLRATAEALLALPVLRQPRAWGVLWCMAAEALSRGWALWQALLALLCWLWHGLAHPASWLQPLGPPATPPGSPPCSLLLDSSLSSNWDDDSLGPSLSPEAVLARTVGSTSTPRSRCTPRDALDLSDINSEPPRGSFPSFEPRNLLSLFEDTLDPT
10000 nM: 98.7% and 99.4%
1111.11 nM: 84.7% and 81%
370.37 nM: 52.5% and 53.6%
1.52 nM: -5.69% and -13.8%
3333.33 nM: 96.3% and 95%

Study 3 — observed: enzyme activity; mode: inhibitor; method: Ub-TR-FRET; medium: HECT domain; concentration: 0.1372 µM; direction: higher = more chain formation; quantity: ubiquitin chain formation AUC
Target: E3 ubiquitin-protein ligase NEDD4, HECT domain (Homo sapiens, UniProt P46934)
Residues (P46934 938-1319, limits assumed): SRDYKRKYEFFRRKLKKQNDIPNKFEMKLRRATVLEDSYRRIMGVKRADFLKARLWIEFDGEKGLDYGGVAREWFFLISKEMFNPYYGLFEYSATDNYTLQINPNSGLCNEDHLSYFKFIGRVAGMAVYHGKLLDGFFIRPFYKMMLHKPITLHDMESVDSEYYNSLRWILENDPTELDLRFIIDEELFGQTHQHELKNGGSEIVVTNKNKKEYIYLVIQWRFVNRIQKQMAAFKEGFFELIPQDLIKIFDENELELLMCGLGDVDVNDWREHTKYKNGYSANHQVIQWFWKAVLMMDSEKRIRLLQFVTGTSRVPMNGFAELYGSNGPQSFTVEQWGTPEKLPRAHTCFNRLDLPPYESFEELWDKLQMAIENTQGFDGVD
CCOC(=O)/C=C/CNCCCCN1c2ccccc2C(=O)N(C)c2ccc(Cl)cc21.O=C(O)/C=C\C(=O)O: 95300 a.u. and 96000 a.u. and 95800 a.u.
CNC(=O)/C=C/CNCCCN1c2ccccc2CCc2ccc(Cl)cc21.Cl: 132000 a.u. and 133000 a.u.
CN(C)C(=O)/C=C/CNCCCN1c2ccccc2CCc2ccc(Cl)cc21.Cl: 140000 a.u. and 139000 a.u.
CCOC(=O)/C=C/CNCCCCN1c2cc(Cl)ccc2C(=O)N(C)c2ccccc21.O=C(O)/C=C\C(=O)O: 89800 a.u. and 88500 a.u. and 88900 a.u.
CCOC(=O)/C=C/CNCCCN1c2ccccc2CCc2ccc(Cl)cc21: 45600 a.u. and 43800 a.u. and 43500 a.u.
COC(=O)CCCNCCCN1c2ccccc2CCc2ccc(Cl)cc21.COC(=O)CCCNCCCN1c2ccccc2CCc2ccc(Cl)cc21.O=C(O)/C=C/C(=O)O: 131000 a.u. and 132000 a.u. and 130000 a.u.
CCOC(=O)/C=C/CNCCCCN1c2cc(Cl)ccc2COc2ccccc21.O=C(O)/C=C\C(=O)O: 87400 a.u. and 85900 a.u. and 87500 a.u.
CCOC(=O)/C=C/CN(CCCCN1c2ccccc2CCc2ccc(Cl)cc21)C(C)C.O=C(O)/C=C\C(=O)O: 79400 a.u. and 81700 a.u. and 81100 a.u. and 82100 a.u. and 82700 a.u. and 80300 a.u.
N#C/C=C/CNCCCCN1c2ccccc2CCc2ccc(Cl)cc21.O=C(O)/C=C\C(=O)O: 81900 a.u. and 72400 a.u. and 82300 a.u. and 82500 a.u. and 68800 a.u. and 71000 a.u.

Study 4 — observed: thermal unfolding; method: differential scanning fluorimetry; concentration: 5.5 µM; direction: higher = more unfolded; quantity: SYPRO Orange fluorescence
SMILES: C[C@@H]1CN(c2ccc(-c3cc(C(=O)NCCOCCOCCOCCOCCNC(=O)/C=C/c4[nH]cc(C(=O)N[C@@H](CC(N)=O)c5ccc(F)c(Cl)c5)c4-c4ccc(Cl)cc4F)ccc3F)cc2NC(=O)c2c[nH]c(=O)cc2C(F)(F)F)C[C@H](C)N1C
DCAF1: DDB1- and CUL4-associated factor 1 (DCAF1, Homo sapiens, UniProt Q9Y4B6)
Chain of UniProt Q9Y4B6 (whole entry, looked up): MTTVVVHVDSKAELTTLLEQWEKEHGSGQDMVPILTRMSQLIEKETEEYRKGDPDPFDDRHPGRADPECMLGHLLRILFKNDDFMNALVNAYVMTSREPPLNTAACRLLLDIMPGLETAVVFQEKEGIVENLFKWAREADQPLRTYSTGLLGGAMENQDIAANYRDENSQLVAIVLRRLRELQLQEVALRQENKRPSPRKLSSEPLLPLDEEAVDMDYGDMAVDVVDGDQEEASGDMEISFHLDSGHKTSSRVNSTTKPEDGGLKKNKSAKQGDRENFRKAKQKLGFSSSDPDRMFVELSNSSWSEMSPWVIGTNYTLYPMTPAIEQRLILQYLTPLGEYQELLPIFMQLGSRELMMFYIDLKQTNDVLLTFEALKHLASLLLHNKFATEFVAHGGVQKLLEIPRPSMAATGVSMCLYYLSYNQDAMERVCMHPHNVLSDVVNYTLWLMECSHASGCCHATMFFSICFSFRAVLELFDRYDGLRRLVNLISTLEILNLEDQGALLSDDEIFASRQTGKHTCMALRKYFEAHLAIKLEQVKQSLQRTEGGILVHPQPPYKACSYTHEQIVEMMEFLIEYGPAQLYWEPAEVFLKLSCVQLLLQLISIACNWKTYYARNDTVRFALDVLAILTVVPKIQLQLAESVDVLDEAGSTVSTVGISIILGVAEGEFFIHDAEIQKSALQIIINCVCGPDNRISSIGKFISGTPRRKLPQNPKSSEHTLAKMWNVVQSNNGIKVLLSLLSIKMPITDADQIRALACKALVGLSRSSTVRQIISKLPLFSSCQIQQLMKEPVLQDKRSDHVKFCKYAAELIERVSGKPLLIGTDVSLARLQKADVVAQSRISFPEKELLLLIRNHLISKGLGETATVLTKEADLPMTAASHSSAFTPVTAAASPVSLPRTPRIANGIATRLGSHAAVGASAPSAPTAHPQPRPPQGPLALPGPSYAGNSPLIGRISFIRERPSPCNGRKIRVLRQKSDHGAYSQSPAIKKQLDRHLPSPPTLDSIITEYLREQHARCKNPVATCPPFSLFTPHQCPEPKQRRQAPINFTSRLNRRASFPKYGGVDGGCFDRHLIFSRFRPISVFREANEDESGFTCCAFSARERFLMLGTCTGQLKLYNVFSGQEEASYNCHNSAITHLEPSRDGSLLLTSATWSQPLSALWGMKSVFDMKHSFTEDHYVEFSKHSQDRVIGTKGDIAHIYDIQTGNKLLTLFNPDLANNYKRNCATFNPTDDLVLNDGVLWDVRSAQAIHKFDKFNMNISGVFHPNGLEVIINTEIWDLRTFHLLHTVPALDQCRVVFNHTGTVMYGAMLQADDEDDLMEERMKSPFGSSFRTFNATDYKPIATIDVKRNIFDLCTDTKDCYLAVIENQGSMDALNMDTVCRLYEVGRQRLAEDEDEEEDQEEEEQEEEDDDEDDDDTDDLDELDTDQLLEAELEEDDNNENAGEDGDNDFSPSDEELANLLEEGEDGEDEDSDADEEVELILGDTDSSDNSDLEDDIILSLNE
WDR5: WD repeat-containing protein 5 (WDR5, Homo sapiens, UniProt P61964)
DCAF1; 80.21 °C: 45000 a.u.
DCAF1; 62.41 °C: 51700 a.u.
WDR5; 52.01 °C: 16800 a.u.
WDR5; 28.8 °C: 12800 a.u.
WDR5; 85.81 °C: 53200 a.u.
WDR5; 82.01 °C: 46000 a.u.
WDR5; 82.21 °C: 46600 a.u.
DCAF1; 73.61 °C: 51600 a.u.
DCAF1; 77.81 °C: 47300 a.u.
WDR5; 69.41 °C: 15500 a.u.
WDR5; 77.41 °C: 32500 a.u.
